Assay results from different studies.
Numbered parts are unrelated; each lists some results of a single study.

Block 1 — technique: PRP chromatography estimate; matrix: 1,9-decadiene/PBS; pH: 7.4
| SMILES | logD |
| --- | --- |
| CC(C)C[C@@H]1NC(=O)[C@H](Cc2cscn2)NC(=O)[C@@H](CC(C)C)NC(=O)[C@H](CC(C)C)NC(=O)[C@@H](Cc2cscn2)NC(=O)[C@H](CC(C)C)NC(=O)[C@@H](CC(C)C)NC1=O | 0.418 |
| CCC[C@@H]1NC(=O)CSC[C@@H](C(=O)OCC)N(C)C(=O)[C@H](CC(C)C)NC(=O)[C@@H](C)N(C)C(=O)[C@@H](CC(C)C)NC(=O)[C@H](C)N(C)C(=O)[C@@H]2CCCN2C(=O)[C@H](CC(C)C)NC(=O)CN(C)C1=O | -0.429 |
| CC(C)C[C@@H]1NC(=O)[C@H](C)NC(=O)[C@H](C)NC(=O)[C@H](CCC(=O)N2CCCC2)NC(=O)[C@H](CC(C)C)NC(=O)[C@H](CC(C)C)NC(=O)[C@H](CC(C)C)NC1=O | -1.95 |
| CC(C)C[C@@H]1NC(=O)[C@H](CC(C)C)NC(=O)[C@@H](CC(C)C)NC(=O)[C@H](C)NC(=O)[C@H](C(C)C)NC(=O)[C@H](C)NC(=O)[C@H](C)NC1=O | -2.32 |

Block 2 — technique: CellTiter-Glo; tested at: 1 µM; time: 4 days; reference: DMSO
Structure (SMILES): O=C(O)[C@@H]1[C@@H](Cn2nnc3ccccc3c2=O)CC[C@H]1C(=O)c1ccc(OCCC2CCOCC2)cc1
| cell line | viability |
| --- | --- |
| sample F normal colon organoid | 107% |
| sample G normal colon organoid | 104% |
| sample E normal colon organoid | 123% |

Block 3 — cell line: HaCaT; tested at: 100 µM; time: 60 h
| SMILES | viability [%] |
| --- | --- |
| CCOC(N)=O | 150 |
| CN1[C@@H]2CCC[C@H]1C[C@@H](NC(=O)c1nn(C)c3ccccc13)C2 | 143 |
| COc1cc(C(=O)NC2CCCNC2)cc(OC)c1OC (stereo not shown) | 134 |
| Cn1c(=O)c2c(ncn2CC(O)CO)n(C)c1=O (stereo not shown) | 116 |

Block 4 — species: mouse; matrix: microsomes or S9; tested at: 2 µM; time: 0.5 h
| Compound | remaining compound [%] |
| --- | --- |
| Cc1nc2nc(C)c(Cc3cccc4ccccc34)c(O)n2n1 | 52.7 |
| CCc1ccc(OCC(=O)c2cc(CC)c(OC)cc2OC)cc1 | 4.25 |
| Cc1nnc2n1CC1CCC(C2)N1C(=O)c1cccc2[nH]ccc12 (stereo not shown) | 87 |
| CCOc1ccc(C2=NNC(c3ccncc3)=Nc3ccc(C(C)C)cc32)cc1 | 20.6 |
| Fc1ccccc1-c1cc(NC2CCNCC2)n2nccc2n1 | > 100 |

A few entries again (block 1):
| SMILES | logD |
| --- | --- |
| CC(C)C[C@@H]1NC(=O)[C@H](C)NC(=O)[C@H](C)NC(=O)[C@H](CCC(=O)N2CCCC2)NC(=O)[C@H](CC(C)C)NC(=O)[C@H](CC(C)C)NC(=O)[C@H](CC(C)C)NC1=O | -1.95 |
| CC(C)C[C@@H]1NC(=O)[C@H](CC(C)C)NC(=O)[C@@H](CC(C)C)NC(=O)[C@H](C)NC(=O)[C@H](C(C)C)NC(=O)[C@H](C)NC(=O)[C@H](C)NC1=O | -2.32 |
